Results pooled from the literature.
Lines come from different studies, so protocols differ.
BCHE: Cholinesterase (BCHE, Homo sapiens, UniProt P06276)
Chain of UniProt P06276 (whole entry, looked up): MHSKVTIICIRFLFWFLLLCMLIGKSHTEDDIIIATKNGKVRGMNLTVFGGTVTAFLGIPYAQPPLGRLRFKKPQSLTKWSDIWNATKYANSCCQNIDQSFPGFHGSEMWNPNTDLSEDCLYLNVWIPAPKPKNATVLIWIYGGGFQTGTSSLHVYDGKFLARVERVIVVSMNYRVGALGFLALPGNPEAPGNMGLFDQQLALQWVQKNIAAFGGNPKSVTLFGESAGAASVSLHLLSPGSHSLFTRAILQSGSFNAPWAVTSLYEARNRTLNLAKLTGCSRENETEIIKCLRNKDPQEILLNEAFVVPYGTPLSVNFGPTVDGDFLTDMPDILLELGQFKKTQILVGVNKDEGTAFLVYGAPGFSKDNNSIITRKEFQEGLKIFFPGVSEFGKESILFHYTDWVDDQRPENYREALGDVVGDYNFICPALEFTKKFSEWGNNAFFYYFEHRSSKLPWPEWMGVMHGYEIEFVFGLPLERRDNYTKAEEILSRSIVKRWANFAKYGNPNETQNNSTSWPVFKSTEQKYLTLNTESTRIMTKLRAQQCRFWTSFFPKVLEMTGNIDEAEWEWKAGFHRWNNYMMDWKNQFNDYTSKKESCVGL
ACHE: Acetylcholinesterase (ACHE, Homo sapiens, UniProt P22303)
Chain of UniProt P22303 (whole entry, looked up): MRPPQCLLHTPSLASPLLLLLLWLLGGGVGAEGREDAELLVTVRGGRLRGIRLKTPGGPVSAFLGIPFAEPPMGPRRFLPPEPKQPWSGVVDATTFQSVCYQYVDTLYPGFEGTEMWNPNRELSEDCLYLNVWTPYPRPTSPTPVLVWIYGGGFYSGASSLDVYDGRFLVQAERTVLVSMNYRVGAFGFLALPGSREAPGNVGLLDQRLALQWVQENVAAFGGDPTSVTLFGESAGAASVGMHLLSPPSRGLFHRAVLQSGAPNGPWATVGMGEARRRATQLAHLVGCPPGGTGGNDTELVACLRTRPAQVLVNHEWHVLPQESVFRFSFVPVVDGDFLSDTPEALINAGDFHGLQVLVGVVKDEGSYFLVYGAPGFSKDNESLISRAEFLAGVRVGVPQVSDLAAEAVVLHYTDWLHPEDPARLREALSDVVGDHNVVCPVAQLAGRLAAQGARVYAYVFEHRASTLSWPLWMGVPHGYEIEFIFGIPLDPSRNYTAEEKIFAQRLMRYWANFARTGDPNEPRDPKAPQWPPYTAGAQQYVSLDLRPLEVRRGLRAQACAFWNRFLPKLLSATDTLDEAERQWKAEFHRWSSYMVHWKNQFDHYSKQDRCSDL
HTR2C: 5-hydroxytryptamine receptor 2C (HTR2C, Homo sapiens, UniProt P28335)
Chain of UniProt P28335 (whole entry, looked up): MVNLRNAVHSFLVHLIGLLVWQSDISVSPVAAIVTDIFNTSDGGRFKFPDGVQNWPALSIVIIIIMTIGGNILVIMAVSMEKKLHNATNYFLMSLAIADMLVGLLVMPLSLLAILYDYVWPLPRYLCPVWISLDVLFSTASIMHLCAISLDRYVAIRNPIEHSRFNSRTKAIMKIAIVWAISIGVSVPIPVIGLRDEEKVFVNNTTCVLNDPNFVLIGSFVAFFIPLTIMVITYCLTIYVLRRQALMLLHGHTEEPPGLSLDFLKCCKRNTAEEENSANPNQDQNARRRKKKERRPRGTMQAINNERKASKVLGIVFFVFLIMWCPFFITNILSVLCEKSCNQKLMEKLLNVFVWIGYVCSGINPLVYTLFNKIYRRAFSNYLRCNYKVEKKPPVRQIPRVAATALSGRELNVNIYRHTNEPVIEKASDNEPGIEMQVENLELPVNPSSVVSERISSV
Chain of UniProt P47898 (whole entry, looked up): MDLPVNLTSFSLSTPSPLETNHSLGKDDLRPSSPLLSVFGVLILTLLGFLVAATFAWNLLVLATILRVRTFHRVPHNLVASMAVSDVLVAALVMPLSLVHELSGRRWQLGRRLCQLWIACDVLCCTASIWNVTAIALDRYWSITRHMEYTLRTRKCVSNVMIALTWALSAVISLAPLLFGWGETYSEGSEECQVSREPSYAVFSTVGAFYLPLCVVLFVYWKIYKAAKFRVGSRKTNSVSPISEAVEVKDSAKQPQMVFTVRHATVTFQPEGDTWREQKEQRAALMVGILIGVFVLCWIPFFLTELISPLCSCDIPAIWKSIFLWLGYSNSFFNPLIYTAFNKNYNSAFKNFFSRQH
Chain of UniProt P06493 (whole entry, looked up): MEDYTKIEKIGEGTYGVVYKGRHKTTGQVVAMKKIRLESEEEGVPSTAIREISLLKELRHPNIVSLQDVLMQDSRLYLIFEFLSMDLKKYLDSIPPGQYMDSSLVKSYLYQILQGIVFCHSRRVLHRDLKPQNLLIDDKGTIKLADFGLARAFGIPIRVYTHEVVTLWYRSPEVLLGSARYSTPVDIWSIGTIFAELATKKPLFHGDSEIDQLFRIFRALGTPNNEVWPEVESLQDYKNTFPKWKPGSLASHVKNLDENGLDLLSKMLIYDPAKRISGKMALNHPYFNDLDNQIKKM
Chain of UniProt Q9H792 (whole entry, looked up): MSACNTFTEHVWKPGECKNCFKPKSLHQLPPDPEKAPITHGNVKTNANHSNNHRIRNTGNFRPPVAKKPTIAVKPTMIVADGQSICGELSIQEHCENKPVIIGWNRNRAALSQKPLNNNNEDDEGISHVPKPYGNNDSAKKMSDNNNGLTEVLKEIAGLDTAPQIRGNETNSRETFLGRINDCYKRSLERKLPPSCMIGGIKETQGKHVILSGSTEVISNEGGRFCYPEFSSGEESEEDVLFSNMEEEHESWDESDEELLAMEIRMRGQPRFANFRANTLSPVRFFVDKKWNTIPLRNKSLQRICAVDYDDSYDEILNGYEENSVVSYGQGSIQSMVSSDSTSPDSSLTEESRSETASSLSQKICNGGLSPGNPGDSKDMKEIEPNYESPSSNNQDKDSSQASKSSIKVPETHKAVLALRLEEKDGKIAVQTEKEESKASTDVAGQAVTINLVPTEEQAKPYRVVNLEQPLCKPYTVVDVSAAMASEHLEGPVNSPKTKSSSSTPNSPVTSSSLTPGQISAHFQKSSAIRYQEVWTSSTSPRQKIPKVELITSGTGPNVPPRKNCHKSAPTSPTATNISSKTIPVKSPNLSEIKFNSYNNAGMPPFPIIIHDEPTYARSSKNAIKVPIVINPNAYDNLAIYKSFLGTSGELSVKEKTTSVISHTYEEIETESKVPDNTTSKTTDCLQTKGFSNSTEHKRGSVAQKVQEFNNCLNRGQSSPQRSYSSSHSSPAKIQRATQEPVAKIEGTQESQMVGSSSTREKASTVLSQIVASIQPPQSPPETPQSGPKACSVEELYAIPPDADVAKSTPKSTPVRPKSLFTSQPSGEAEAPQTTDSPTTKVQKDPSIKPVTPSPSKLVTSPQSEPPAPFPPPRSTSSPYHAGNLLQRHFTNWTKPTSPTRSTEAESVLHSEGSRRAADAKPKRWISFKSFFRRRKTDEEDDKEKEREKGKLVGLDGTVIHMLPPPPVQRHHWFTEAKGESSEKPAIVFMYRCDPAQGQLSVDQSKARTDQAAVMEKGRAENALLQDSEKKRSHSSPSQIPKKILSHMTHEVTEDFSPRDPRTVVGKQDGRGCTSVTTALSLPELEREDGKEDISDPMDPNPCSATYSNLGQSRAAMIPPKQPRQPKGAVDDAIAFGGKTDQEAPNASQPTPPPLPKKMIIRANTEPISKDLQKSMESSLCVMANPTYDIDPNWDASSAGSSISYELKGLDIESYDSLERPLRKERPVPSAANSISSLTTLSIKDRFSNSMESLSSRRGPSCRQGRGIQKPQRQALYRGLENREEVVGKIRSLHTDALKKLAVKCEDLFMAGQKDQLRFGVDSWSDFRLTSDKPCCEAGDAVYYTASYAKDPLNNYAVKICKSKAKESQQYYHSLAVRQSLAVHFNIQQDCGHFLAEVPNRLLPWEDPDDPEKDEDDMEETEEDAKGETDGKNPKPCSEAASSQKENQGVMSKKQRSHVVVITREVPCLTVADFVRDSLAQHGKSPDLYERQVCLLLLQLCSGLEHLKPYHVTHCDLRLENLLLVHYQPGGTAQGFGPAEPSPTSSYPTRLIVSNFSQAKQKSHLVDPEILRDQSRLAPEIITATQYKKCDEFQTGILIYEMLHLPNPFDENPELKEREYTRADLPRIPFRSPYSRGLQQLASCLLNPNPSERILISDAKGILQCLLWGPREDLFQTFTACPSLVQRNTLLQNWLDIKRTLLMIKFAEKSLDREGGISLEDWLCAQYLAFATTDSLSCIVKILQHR
Chain of UniProt P53341 (whole entry, looked up): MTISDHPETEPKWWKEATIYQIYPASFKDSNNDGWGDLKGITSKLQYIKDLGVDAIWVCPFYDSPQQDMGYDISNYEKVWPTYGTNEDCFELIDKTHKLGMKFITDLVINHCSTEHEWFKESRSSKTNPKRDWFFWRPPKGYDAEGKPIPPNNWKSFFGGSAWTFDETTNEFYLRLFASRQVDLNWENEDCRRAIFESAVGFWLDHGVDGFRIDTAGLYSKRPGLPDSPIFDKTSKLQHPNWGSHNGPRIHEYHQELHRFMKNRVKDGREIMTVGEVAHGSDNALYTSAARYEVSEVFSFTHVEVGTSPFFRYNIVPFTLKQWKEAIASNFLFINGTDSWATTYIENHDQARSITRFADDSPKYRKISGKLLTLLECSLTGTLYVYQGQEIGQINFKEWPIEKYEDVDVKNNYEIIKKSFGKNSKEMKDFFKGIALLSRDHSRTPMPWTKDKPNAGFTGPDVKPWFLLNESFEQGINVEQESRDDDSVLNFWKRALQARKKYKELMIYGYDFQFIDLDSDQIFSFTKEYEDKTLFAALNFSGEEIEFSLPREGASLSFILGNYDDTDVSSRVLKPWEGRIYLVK
Chain of UniProt P28221 (whole entry, looked up): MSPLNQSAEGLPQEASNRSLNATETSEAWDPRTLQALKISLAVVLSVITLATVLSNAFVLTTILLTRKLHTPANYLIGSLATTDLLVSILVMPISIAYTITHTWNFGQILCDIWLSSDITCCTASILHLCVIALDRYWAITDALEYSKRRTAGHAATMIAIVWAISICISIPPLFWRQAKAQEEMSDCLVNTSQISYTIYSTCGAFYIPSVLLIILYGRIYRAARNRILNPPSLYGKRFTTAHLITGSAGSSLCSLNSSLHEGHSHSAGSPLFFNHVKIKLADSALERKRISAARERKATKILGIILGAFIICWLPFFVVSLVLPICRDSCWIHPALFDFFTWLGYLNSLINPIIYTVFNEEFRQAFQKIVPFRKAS

Compound | target | test | conditions | inhibition
c1cncc([C@@H]2CCCN2)c1 | HTR1D (Homo sapiens, UniProt P28221) | cell-free assay | 50 µM | -11.6%
COc1cc(/C=C/C(=O)O)ccc1OCc1cn(CC(=O)Nc2ccc(O)cc2)nn1 | BCHE | enzyme activity, inhibitor, Ellman | 40 µM | 30.4%
Nc1ccncc1 | SCN1A (Homo sapiens, UniProt P35498) | ion current, inhibitor, patch clamp | 30 µM | -241%
COc1cc(/C=C/C(=O)O)ccc1OCc1cn(CC(=O)Nc2cccc([N+](=O)[O-])c2)nn1 | ACHE | enzyme activity, inhibitor, Ellman | 40 µM | 30%
CN1C(=S)N(c2ccccc2)C(=O)/C1=C1/C(=O)N(C)c2ccc(Cl)cc21 | ACHE | enzyme activity, inhibitor, Ellman | 5 µM | 60%
C[C@H]1O[C@H](O[C@H]2[C@H](O)[C@@H](O)[C@@H](O[C@H]3[C@H](O)[C@@H](O)C(O)O[C@@H]3CO)O[C@@H]2CO)[C@H](O)[C@@H](O)[C@@H]1N[C@H]1C=C(CO)[C@@H](O)[C@H](O)[C@H]1O (some centres unmarked) | MAL12 (Saccharomyces cerevisiae S288c, UniProt P53341) | enzyme activity, inhibitor, absorbance | 80 µg/mL | 43.4%
CN(C)Cc1c[nH]c2ccccc12 | Palmitoyl-protein thioesterase 1 (Homo sapiens, UniProt P50897) | enzyme activity, inhibitor | 125 µM | 6.1%
CCc1ccc(N2C(=O)/C(=C3/C(=O)N(C)c4ccc(Cl)cc43)NC2=S)cc1 | ACHE | enzyme activity, inhibitor, Ellman | 10 µM | 91%
COc1cc2c3c(c1OC)-c1c(OC)ccc(Br)c1CC3N(C)CC2 (centres unmarked) | HTR2C | ligand displacement, radioligand | 10 µM | 65%
CC(C)C[C@H]1C(=O)N2CCC[C@H]2[C@]2(O)O[C@](NC(=O)[C@@H]3C=C4c5cccc6[nH]c(Br)c(c56)C[C@H]4[N+](C)(C)C3)(C(C)C)C(=O)N12 | HTR2C | ligand displacement, radioligand | 10 µM | 70.9%
CC(C)OC(=O)[C@H](C)N[P@](=O)(CO[C@H](C)Cn1cnc2c(N)ncnc21)Oc1ccccc1 | CDK1 (Homo sapiens, UniProt P06493) | enzyme activity, inhibitor, ADP detection | 100 µM | 81.8%
COc1cc(/C=C/C(=O)O)ccc1OCc1cn(CC(=O)Nc2cccc(C)c2)nn1 | BCHE | enzyme activity, inhibitor, Ellman | 40 µM | 18.5%
CN1CCC[C@H]1c1cccnc1 | HTR5A (Homo sapiens, UniProt P47898) | ligand displacement | 50 µM | 22.8%
C#Cc1n[nH]c2c(-c3cn([C@@H](C)c4ccccn4)c(=O)[nH]c3=O)cc(F)cc12 | PEAK1 (Homo sapiens, UniProt Q9H792) | enzyme activity, inhibitor | 0.1 µM | 5.1%
CC[C@H](C)[C@H](NC(=O)[C@@H](NC(=O)[C@H](N)Cc1ccccc1)C(C)C)C(=O)N[C@@H](C)C(N)=O | APP (Homo sapiens, UniProt P05067) | amyloid aggregation, inhibitor, fluorescence | 2 µM, 24 h | 100%
COc1cc(/C=C/C(=O)O)ccc1OCc1cn(CC(=O)Nc2ccc(F)cc2)nn1 | ACHE | enzyme activity, inhibitor, Ellman | 40 µM | 9.37%
Cn1cc(-c2cc(F)cc(N3CCn4c(cc5c4CCCC5)C3=O)c2CO)cc(Nc2ccc(N3CCN(C4COC4)CC3)cn2)c1=O | LRRK2 (Homo sapiens, UniProt Q5S007) | enzyme activity, inhibitor | 0.1 µM | 19%
COc1cc(/C=C/C(=O)O)ccc1OCc1cn(CC(=O)Nc2ccccc2Cl)nn1 | ACHE | enzyme activity, inhibitor, Ellman | 40 µM | 22.3%
CN1C(=O)/C(=N\Nc2ncc(-c3cc4ccccc4oc3=O)s2)c2cc(Cl)ccc21 | ACHE | enzyme activity, inhibitor, Ellman | 0.1 µM | 52%
COc1cc(/C=C/C(=O)O)ccc1OCc1cn(CC(=O)NCCc2ccccc2)nn1 | BCHE | enzyme activity, inhibitor, Ellman | 40 µM | 14.9%
CCN(CC)CCCC[C@H](NC(=O)[C@H](CC(C)C)NC(=O)[C@H](C)NC(=O)[C@H](Cc1ccccc1)NC(=O)c1ccc(C(C)(C)C)cc1)C(=O)N[C@@H](CO)C(=O)OC | EDNRA (Homo sapiens, UniProt P25101) | ligand displacement, radioligand | 10 µM | -12%
COc1cc(/C=C/C(=O)O)ccc1OCc1cn(CC(=O)Nc2ccc([N+](=O)[O-])cc2C)nn1 | ACHE | enzyme activity, inhibitor, Ellman | 40 µM | 25.6%
CC(C)CC(=O)OC[C@H]1O[C@@](C#N)(c2ccc3c(N)ncnn23)[C@H](O)[C@@H]1O | DRD2 (Homo sapiens, UniProt P14416) | cell-free assay | 20 µM | -1%

Excerpt of the above:
Compound | target | test | conditions | inhibition
CN1C(=S)N(c2ccccc2)C(=O)/C1=C1/C(=O)N(C)c2ccc(Cl)cc21 | ACHE | enzyme activity, inhibitor, Ellman | 5 µM | 60%
COc1cc2c3c(c1OC)-c1c(OC)ccc(Br)c1CC3N(C)CC2 (centres unmarked) | HTR2C | ligand displacement, radioligand | 10 µM | 65%
